# Experimental data gathered from unrelated publications.
# Each line is one published result; not all experiments were run side by side. Values joined by “and” are separate records of one study, mostly repeats; a detail may differ. ± marks the error that the study gave.
SMILES,test,system,setting,how to read,measurement,value
Cc1nc(N)nc2c1C(=O)N[C@@H](c1ccc(F)cc1-c1cccc(O[11CH3])n1)C2,ex vivo biodistribution,"mice, MDA-MB-231 subcutaneous xenograft, blood","60 min post-injection, baseline, vehicle pre-treatment",,tracer uptake,4 ± 0.1 %ID
CCCC[C@H](OC(C)=O)c1ccccc1C(=O)O,,"beagle dogs, both sexes, whole blood","intravenous, 1.5 mg/kg, 7 days",,Cavg,57 ± 17 ng/mL
Cc1cc(C(=O)NC(C)(C)C(=O)O)cc(C)n1,LC-MS metabolite profiling,"Sprague-Dawley rat, both sexes, plasma","oral, 100 mg/kg of parent drug, 2 (unit not given)",higher = more metabolite,plasma peak area,26900 a.u.
C=CC(=O)Nc1cc(Nc2nccc(-c3c[nH]c4ccccc34)n2)c(OC)cc1N(C)CCN(C)C,storage stability,human dried blood spots,"5 h, -80 °C, LLOQ level",,recovery,89.9%
O=S(=O)(N[C@H]1CCO[C@@H](C2c3ccc(F)cc3CCc3cc(F)ccc32)C1)c1ccc(OC(F)(F)F)cc1,,"mouse, brain homogenate","oral, 30 mg/kg, 2 h",,brain concentration,960 ng/g
COc1cccc(OC)c1-c1cc(C(=O)NC2(C(=O)O)C3CC4CC(C3)CC2C4)nn1-c1ccc(C(=O)N(C)CCCN(C)CCCN(C)C(=O)[C@H](CCCCNC(=O)[C@H](CC(C)C)NC(=O)C2OC2C(=O)O)NC(=O)CN2CCN(CC(=O)[O-])CCN(CC(=O)[O-])CCN(CC(=O)[O-])CC2)cc1C(C)C.[177Lu+3] (mixture of isomers),,mouse HT-29 xenograft,"72 h, biodistribution",relative to: tumour over stomach,tumour-to-stomach ratio,90.5
CC[C@H](C)[C@H](NC(=O)[C@H](Cc1ccc(O)cc1)NC(=O)[C@@H](NC(=O)[C@H](CCCNC(=N)N)NC(=O)[C@@H](N)CC(=O)O)C(C)C)C(=O)N[C@@H](Cc1c[nH]cn1)C(=O)N1CCC[C@H]1C(=O)O,LC-MS/MS,"Sprague-Dawley rat, both sexes, plasma","subcutaneous, 10 mg/kg/day, day 0, 1 h, 60 min",,plasma concentration,5.93 ng/mL
N#C[C@@H]1CC(F)(F)CN1C(=O)CNC(=O)c1ccnc2c(NC(=O)CCOCCOCCOCCOCCOCCOCCNC(=O)[C@H](CCCCNC(=O)CN3CCN(CC(=O)[O-])CCN(CC(=O)[O-])CCN(CC(=O)[O-])CC3)NC(=O)CCCc3ccc(I)cc3)cccc12.[177Lu+3],,PBS,"4 h, 37 °C, 177Lu-labelled",,radiochemical stability,99.23 ± 0.5%
Cc1nn(-c2nc3c(F)cc(F)cc3s2)c(O)c1C(c1ccc(C(F)(F)F)cc1)c1c(C)nn(-c2nc3c(F)cc(F)cc3s2)c1O,,"ICR mouse, plasma","intravenous, 5 mg/kg",,CL observed,0.682 mL/min/kg and 2.11 mL/min/kg and 1.72 mL/min/kg
CNc1cc(C)c(C(N)=O)cn1,,"Han Wistar rats, male, plasma","oral, 30 mg/kg, 1.00 h",,plasma concentration,97 µM
N#C[C@@H]1CC(F)(F)CN1C(=O)CNC(=O)c1ccnc2c(NC(=O)[C@H](CCCCNC(=O)CCOCCOCCOCCOCCOCCOCCNC(=O)CN3CCN(CC(=O)[O-])CCN(CC(=O)[O-])CCN(CC(=O)[O-])CC3)NC(=O)CCCc3ccc(I)cc3)cccc12.[177Lu+3],,PBS,"24 h, 37 °C, 177Lu-labelled",,radiochemical stability,96.5 ± 4.8%
CCc1cnc(NC(=O)c2cc(S(=O)(=O)N3CCOCC3)ccc2N(C)C2CCCC2)s1,,mouse,"10 mg/kg, 3 doses",,serum alkaline phosphatase,72 IU/L
CCOc1ccc(Nc2ncnc3[nH]c(/C=C/c4ccc(OC)c(OC)c4)nc23)cc1,HPLC,solution,after 1 h light exposure,,purity,99.3%
COc1cc2c(cc1OC)[C@H]1C[C@H](O)[C@H](CC(C)C)CN1CC2,refers to: non-deuterated analyte,"healthy human male, plasma","oral, 25 mg, geometric mean, [14C]-tetrabenazine dosed",,MRT(0-t),3.69 h
CC[C@H](C)[C@H](NC(=O)[C@H](N)Cc1ccc(O)cc1)C(=O)N[C@H]1CSSC[C@@H](C(=O)N(C)[C@H](C(=O)N[C@@H](CCCCN)C(=O)N[C@@H](CCCCN)C(N)=O)[C@@H](C)CC)NC(=O)[C@H](CCCNC(=N)N)NC(=O)[C@H](Cc2c[nH]cn2)NC(=O)[C@H](C)NC(=O)CN(C)C(=O)[C@H](Cc2c[nH]c3ccccc23)NC(=O)[C@H](CC(=O)O)NC(=O)[C@H](CCC(N)=O)NC(=O)[C@H](Cc2cn(C)c3ccccc23)NC(=O)[C@H](C(C)C)NC1=O,SPR-based competition,"cynomolgus monkey, vitreous","intravitreal, 500 µg single, 2160 h, mean of eyes",,concentration,0.1 to 0.12 µM
CN(Cc1cc(C2CC2)on1)C(=O)c1cccc(-c2ccc(F)cc2)c1,,"male ICR/CD-1 mouse, liver microsomes","2 µM, 30 min, pH 7.5, with: 1-aminobenzotriazole 500 µM, preincubated 30 min",,remaining compound,76.9%
CC[C@H](C)[C@@H]1NC(=O)[C@H](Cc2ccc(O)cc2)NC(=O)CCCSC[C@@H](C(=O)N(CC(=O)N[C@@H](CC(C)C)C(=O)NCC(N)=O)Cc2ccc(F)cc2)NC(=O)[C@H](CC(N)=O)NC(=O)[C@H](CCC(N)=O)NC1=O,,"human, plasma","intranasal, 200 µg every 3 h, 11 doses, after second dose",,terminal half-life,0.46 h
COCC1CN(C2CCN(c3cc(OC)c(Nc4ncc(Br)c(Nc5ccc6c(c5P(C)(C)=O)OCCO6)n4)cc3C)CC2)C1,first-in-human trial,human,"oral, 10 mg once daily",any treatment-related,adverse events,100%
O=C(Nc1cnccc1-c1ccc([18F])cc1)c1ccnc(NC(=O)C2CC2)c1,"ex vivo biodistribution, gamma counting","mouse, GSK-3β transgenic, late stage, right kidney","intravenous, 120 min",,SUV,0.74
C=CC(=O)N1CCC[C@@H](c2ccc(C(N)=O)c3[nH]ccc23)C1,,"mouse, TMD8 tumour-bearing, plasma","7.5 mg/kg twice daily, 12 h",,trough concentration,0 ng/mL
CCCCN1C(=O)c2cccc3c(NCCCN4CCOCC4)ccc(c23)C1=O,,dioxane,,,Stokes shift,79 nm
CN1CCC[C@]1(C)/C=C/S(=O)(=O)NC(=O)Nc1c2c(cc3c1CCC3)CCC2,"refers to: Constipation, possibly related",human,"oral, 12.5 mg twice daily, 14 days, multiple ascending dose",,subjects with adverse event,0%
C/C(N)=N/C(=N\S(=O)(=O)c1ccc(C(F)(F)F)cc1)N1C[C@H](c2ccccc2)C(c2ccc(Cl)cc2)=N1,,"Beagle dog, plasma","oral, 6 mg/kg, observed value",,Tmax,4 h
O=C1c2sc(-c3ccc(N4CCC(CO)CC4)nc3F)nc2CCN1c1cccnc1,HPLC,"rhesus monkey, plasma","intravenous, 6 min",,parent fraction,0.84
CCCCN1C(=O)c2cccc3c(NCCCCCCN4CCOCC4)ccc(c23)C1=O,,DMSO,,,Stokes shift,89 nm
O=S1(=O)CC2CCCCC2CS1 (stereo not shown),"phase solubility, NMR",water,"25 °C, with: hydroxypropyl-β-cyclodextrin 295 mM",,solubility,30.6 mM
CCCCN1C(=O)c2cccc3c(NCCCCN4CCOCC4)ccc(c23)C1=O,,water,pH 6.0,,Stokes shift,105 nm
Cc1ccc(OCC(=O)N(Cc2cccs2)c2ccn[nH]2)cc1,,human plasma,"750 ng/mL, 1 h, 37 °C, unit not given",relative to: time zero,remaining compound,76
C=C(NC(=O)c1csc(-c2nc3c(cc2O)-c2nc(cs2)C(=O)NC(C(C)O)C(=O)NC(=C(C)OC)c2nc(cs2)C(=O)NC2c4nc(cs4)C(=O)NC(COC(=O)c4c5c6c(cccc6n4O)COC(=O)C(OC4CC(C)(O)C(N(C)C)C(C)O4)C2OC5)c2nc-3cs2)n1)C(N)=O (stereo not shown),,"cynomolgus monkey, female, plasma","intravenous infusion, 3 mg/kg single dose",,volume of distribution,0.895 L/kg
O=C(Nc1cnccc1-c1ccc([18F])nc1)c1ccnc(NC(=O)C2CC2)c1,"ex vivo biodistribution, gamma counting","mouse, transgenic, GSK-3β, early stage, right kidney","intravenous, 120 min",,SUV,0.225
CCCCN1C(=O)c2cccc3c(NCCCCCN4CCOCC4)ccc(c23)C1=O,,water,pH 6.0,,Stokes shift,101 nm

# A few entries again:
SMILES,test,system,setting,how to read,measurement,value
O=S1(=O)CC2CCCCC2CS1 (stereo not shown),"phase solubility, NMR",water,"25 °C, with: hydroxypropyl-β-cyclodextrin 295 mM",,solubility,30.6 mM
CCCCN1C(=O)c2cccc3c(NCCCCN4CCOCC4)ccc(c23)C1=O,,water,pH 6.0,,Stokes shift,105 nm
Cc1ccc(OCC(=O)N(Cc2cccs2)c2ccn[nH]2)cc1,,human plasma,"750 ng/mL, 1 h, 37 °C, unit not given",relative to: time zero,remaining compound,76
